Values quoted from earlier work, collected from citations in different studies.
Lines come from different studies, so protocols differ. Numbers after ± are the reported error.

Structure (SMILES) | tested on | assay | system | conditions | measurement | value
c1cc(-c2cnn3cc(-c4ccc(OCCN5CCCCC5)cc4)cnc23)ccn1 | CSNK1E | kinase activity, inhibitor | – | 0.5 µM | inhibition | 48%
CC1(C)S[C@@H]2[C@H](NC(=O)[C@H](N)c3ccccc3)C(=O)N2[C@H]1C(=O)O | Klebsiella pneumoniae | – | clinical isolate RKI-No_229/15 | – | MIC | > 16 µg/mL
O=C(Nc1nc2ccccc2[nH]1)c1ccccc1 | HSP90α | – | – | 5.9 µM, PubChem AID 1846 | response | 57%
COc1ccccc1Oc1cccc(CN2CCC(NC(=O)C3CC(=O)Nc4ccccc43)CC2)c1 (stereo not drawn) | human CCR8 W194A mutant (TM5) | IP accumulation, agonist | – | – | EC50 | 30 nM
CCCCCC(CCC)C(=O)O (stereo not drawn) | histone deacetylase | enzyme activity, inhibitor | mouse embryonic stem cells | unbound medium concentration | EC10 | 5000 nM
Cc1[nH]c(C)c(-c2ccc(-c3cccc(C(F)(F)F)c3)nc2)c(=O)c1Br | Plasmodium falciparum | whole cell extended time | 3D7 | 72 h | IC50 | 140 nM
COC(=O)C1=C(C)NC(C)=C(C(=O)OC)C1c1c(-c2ccc(OC)c(OC)c2)nc2sccn12 | – | negative inotropic effect | guinea pig, isolated left atrium | – | EC50 | 2640 nM
C[C@H]1COCCN1c1nc(-c2cnc(N)cc2C(F)F)nc(N2CCOCC2)n1 | SW480 | – | – | – | GI50 | 713 nM
Nc1cccc2c1C(=O)N(C1CCC(=O)NC1=O)C2=O (stereo not drawn) | – | – | relapsed refractory multiple myeloma patients | dose not given, trial | minimal response or better rate | 29%
COc1ccccc1Oc1cccc(CN2CCC(NC(=O)C(CCN3CCCC3)c3ccccc3)CC2)c1 (stereo not drawn) | human CCR8 G206W mutant (TM5) | IP accumulation, agonist | – | – | EC50 | 42 nM
Cc1[nH]c(C)c(-c2ccc(S(=O)(=O)c3ccc(Cl)cc3)cc2)c(=O)c1Cl | Plasmodium falciparum | whole cell extended time | 3D7 | 72 h | IC50 | 140 nM
CNC(C)C1CCC(N)C(OC2C(N)CC(N)C(OC3OCC(C)(O)C(NC)C3O)C2O)O1 (stereo not drawn) | Klebsiella pneumoniae | – | clinical isolate RKI-No_107/15 | – | MIC | ≤ 0.5 µg/mL
CCNS(=O)(=O)c1ccc(OC)cc1C1(O)CCN(Cc2cccc(Oc3ccccc3OC)c2)CC1 | human CCR8 S110H mutant (TM3) | IP accumulation, agonist | – | – | EC50 | > 10000 nM
CCN(c1cc(-c2ccc(CN3CCOCC3)cc2)cc(C(=O)NCc2c(C)cc(C)[nH]c2=O)c1C)C1CCOCC1 | – | – | epithelioid sarcoma patients | dose not given | overall response rate | 11%
COc1ccc(C#Cc2ccc(-c3c(C)[nH]c(C)c(Cl)c3=O)cc2)cc1 | Plasmodium falciparum | whole cell extended time | 3D7 | 72 h | IC50 | 70 nM
Nc1cc(C(F)(F)F)c(-c2nc(N3CCOCC3)nc(N3CCOCC3)n2)cn1 | MG-63 | – | – | – | GI50 | 535 nM
COc1c(C)[nH]c(C)c(-c2ccc(Oc3cccc(C(F)(F)F)c3)cc2)c1=O | Plasmodium falciparum | whole cell extended time | 3D7 | 72 h | IC50 | 310 nM
COC(=O)C1=C(C)NC(C)=C(C(=O)OC)C1c1c(-c2cc(OC)ccc2OC)nc2sc(Cl)cn12 | – | decrease in atrial rate | guinea pig right atrium | – | EC50 | 980 nM
COc1ccccc1Oc1cccc(CN2CCC3(CC2)C(=O)NCN3CCc2ccccc2)c1 | human CCR8 G206A mutant (TM5) | IP accumulation, agonist | – | – | EC50 | 19 nM
CCOC(=O)c1cn(CC)c2cc(N3CCCCCC3)c(F)cc2c1=O | Plasmodium falciparum | whole cell extended time | 3D7 | 72 h | IC50 | 410 nM
CCc1cn2c(C3C(C(=O)OC)=C(C)NC(C)=C3C(=O)OC)c(-c3cc(OC)ccc3OC)nc2s1 | – | decrease in atrial rate | guinea pig right atrium | – | EC50 | 1590 nM
COc1ccc(C2CC(=O)C3=C(C2)NC(C)=C(C(=O)OC(C)C)C3c2cccc(O)c2)cc1OC (stereo not drawn) | Plasmodium falciparum | whole cell extended time | 3D7 | 72 h | IC50 | 780 nM
COc1ccccc1Oc1cccc(CN2CCC(O)(c3ccccc3C(=O)O)CC2)c1 | human CCR8 W251Q mutant (TM6) | IP accumulation, agonist | – | – | EC50 | 278 nM
Cc1[nH]c(C)c(-c2ccc(C(=O)c3ccc(Cl)cc3)cc2)c(=O)c1Br | Plasmodium falciparum | whole cell extended time | 3D7 | 72 h | IC50 | 810 nM
Cc1c(C#N)cccc1[C@@H](C)Nc1nnc(C)c2cnc(N3CCOCC3)cc12 | OCI-AML-5 | 3D cell viability | – | 7 d | IC50 | 89.3 ± 0.07 nM
Cc1[nH]c(C)c(-c2cccc(-c3ccc(OC(F)(F)F)cc3)c2)c(=O)c1Br | Plasmodium falciparum | whole cell extended time | 3D7 | 72 h | IC50 | 410 nM
COC(=O)C1=C(C)NC(C)=C(C(=O)OC)C1c1c(Cl)nc2sc(C)c(C)n12 | – | negative inotropic effect | guinea pig, isolated left atrium | – | EC50 | 81 nM

Some of these lines once more:
Structure (SMILES) | tested on | assay | system | conditions | measurement | value
COC(=O)C1=C(C)NC(C)=C(C(=O)OC)C1c1c(-c2cc(OC)ccc2OC)nc2sc(Cl)cn12 | – | decrease in atrial rate | guinea pig right atrium | – | EC50 | 980 nM
